Published values pooled from the literature.
Several values in a cell are separate wells, animals, samples, runs or records.
CDK1 with cyclin B: Cyclin-dependent kinase 1, with cyclin B (CDK1, Homo sapiens, UniProt P06493)
CDK1: Cyclin-dependent kinase 1 (CDK1, Homo sapiens, UniProt P06493)
CDK1 with cyclin A2: Cyclin-dependent kinase 1, with cyclin A2 (CDK1, Homo sapiens, UniProt P06493)
CDK1 with cyclin A: Cyclin-dependent kinase 1, with cyclin A (CDK1, Homo sapiens, UniProt P06493)

NC(=O)[C@@H](O)C[C@H]1CCc2sc3ncnc(O[C@H]4CC[C@H](N5CCOCC5)CC4)c3c21 — inhibition (CDK1 with cyclin B; enzyme activity, inhibitor; 10 µM): 27%
N[C@H]1CC[C@H](Nc2nccc(-c3cccnc3Oc3ccc(NC(=O)NC4CC4)c4ccccc34)n2)CC1 — log2 LFQ intensity (CDK1; kinobead competition pulldown; HEK293/HCT116 lysate mixture; 10 µM, 1 h, 4 °C; lower = stronger competition): 26 and 25.8 and 25.6
CCn1cc(C(=O)O)c(=O)c2c(N)c(F)c(NC3CCCCC3)cc21 — inhibition (CDK1 with cyclin A2; kinase activity; 0.1 µM, together with: ATP at Km): 9.3%
O=C(Cc1ccc(OCc2ccccc2)cc1)NC1(C(=O)O)CCN(C(=O)c2ccc(-c3cccc(Cl)c3)cc2)CC1 — activity vs control (CDK1 with cyclin B; enzyme activity, inhibitor; 10 µM): 115%
NC(=O)C[C@H]1CCc2sc3ncnc(O[C@H]4CC[C@H](N5CCOCC5)CC4)c3c21 — inhibition (CDK1 with cyclin A; enzyme activity, inhibitor; 10 µM): 1%
Cc1cc(C)nc(Nc2ccc([C@@H]3CCCN(C(=O)/C=C/c4c(C)nn(C)c4C)C3)nc2)n1 — activity vs control (CDK1; enzyme activity, inhibitor, ADP detection; 1 µM): 99%
Nc1ncc(-c2cc(-c3cnn(CC(F)(F)F)c3)ncc2F)nc1C(=O)NC1CNCC(F)C1 (stereo not shown) — remaining activity (Cyclin-dependent kinase 1, with cyclin E (CDK1, Homo sapiens, UniProt P06493); enzyme activity; 1 µM; reference: DMSO control): 86.1%
COc1ccc(C(=O)/C=C/c2ccccc2-c2c[nH]c3ccc(C#N)cc23)c(O)c1 — inhibition (CDK1 with cyclin B; enzyme activity, inhibitor; 20 µM): 5%
COc1c(OCCCN2CCOCC2)ccc2c1N=C(NC(=O)c1cnc(N)nc1)N1CCN=C21 — remaining activity (CDK1 with cyclin B; kinase activity, inhibitor; 1 µM; reference: untreated control): 103%
COc1ccc(O)cc1-c1c[nH]c2ncc(-c3cncc(C(=O)N(C)C)c3)cc12 — inhibition (Cyclin-dependent kinase 1, with cyclin E1 (CDK1, Homo sapiens, UniProt P06493); binding, competition with immobilised ligand; 0.2 µM): 16.1%
COCC12C(=O)NC3C4(C(OC)CC1O)C1CC5(O)C(OC)C(O)C(OC(C)=O)(C1C5OC(=O)c1ccccc1)C3(O)C(OC)C24 (stereo not shown) — remaining activity (CDK1 with cyclin A; kinase activity, inhibitor, ProQinase kinase profiling; 25 µM; reference: control): 71% and 77%
C=CC(=O)N1Cc2nc(-c3cc(-c4cc(Cl)cnc4Cl)c(F)cc3F)n(-c3ccncn3)c2C1 — inhibition (CDK1 with cyclin B; cell-free assay, inhibitor; 1 µM): 6.2%
Cc1cc(C)nc(NS(=O)(=O)c2ccc(NC(=O)CCCOc3ccc(C(C)(C)C)cc3)cc2)n1 — inhibition (CDK1; enzyme activity, inhibitor, ADP detection; 100 µM): 91%
CN1C[C@@H](c2c[nH]c3cc(Br)ccc23)NC[C@@H]1c1c[nH]c2cc(Br)ccc12 — remaining activity (CDK1 with cyclin A2; enzyme activity, inhibitor; 10 µM): 106%
CN1CCN(Cc2ccc(-c3ccc(CO[C@H]4CCC[C@@H]4NC(=O)c4cc(-c5cnn(C)c5)cnc4N)cc3)cc2)CC1 — inhibition (CDK1 with cyclin A2; enzyme activity, inhibitor; 0.1 µM): 2%
C=CC(=O)Nc1cccc(-c2cnc3[nH]cc(C(=O)NC(C)(C)C)c3n2)c1 — inhibition (CDK1; kinase activity; 0.1 µM): 39% and 36%
Cc1cc(C)nc(Nc2ccc([C@@H]3CCCN(C(=O)/C=C/c4csc(C)n4)C3)nc2)n1 — activity vs control (CDK1; enzyme activity, inhibitor, ADP detection; 1 µM): 98%
Cc1cccc(O[C@H]2CCC[C@@H](C(C)CNCc3ccncc3)C2)c1 (relative stereo) — inhibition (CDK1; enzyme activity, inhibitor; 10 µM): -4%
O=C(O)CCC(=O)c1cccc(NS(=O)(=O)c2c[nH]c3ncccc23)c1 — remaining activity (CDK1 with cyclin B; kinase activity, radiometric; 10 µM): 111%

Some of these lines once more:
COCC12C(=O)NC3C4(C(OC)CC1O)C1CC5(O)C(OC)C(O)C(OC(C)=O)(C1C5OC(=O)c1ccccc1)C3(O)C(OC)C24 (stereo not shown) — remaining activity (CDK1 with cyclin A; kinase activity, inhibitor, ProQinase kinase profiling; 25 µM; reference: control): 71% and 77%
C=CC(=O)N1Cc2nc(-c3cc(-c4cc(Cl)cnc4Cl)c(F)cc3F)n(-c3ccncn3)c2C1 — inhibition (CDK1 with cyclin B; cell-free assay, inhibitor; 1 µM): 6.2%
